Assay results of several laboratories.
Numbered parts are unrelated; each lists some results of a single study.
Chain of UniProt P53671 (whole entry, looked up): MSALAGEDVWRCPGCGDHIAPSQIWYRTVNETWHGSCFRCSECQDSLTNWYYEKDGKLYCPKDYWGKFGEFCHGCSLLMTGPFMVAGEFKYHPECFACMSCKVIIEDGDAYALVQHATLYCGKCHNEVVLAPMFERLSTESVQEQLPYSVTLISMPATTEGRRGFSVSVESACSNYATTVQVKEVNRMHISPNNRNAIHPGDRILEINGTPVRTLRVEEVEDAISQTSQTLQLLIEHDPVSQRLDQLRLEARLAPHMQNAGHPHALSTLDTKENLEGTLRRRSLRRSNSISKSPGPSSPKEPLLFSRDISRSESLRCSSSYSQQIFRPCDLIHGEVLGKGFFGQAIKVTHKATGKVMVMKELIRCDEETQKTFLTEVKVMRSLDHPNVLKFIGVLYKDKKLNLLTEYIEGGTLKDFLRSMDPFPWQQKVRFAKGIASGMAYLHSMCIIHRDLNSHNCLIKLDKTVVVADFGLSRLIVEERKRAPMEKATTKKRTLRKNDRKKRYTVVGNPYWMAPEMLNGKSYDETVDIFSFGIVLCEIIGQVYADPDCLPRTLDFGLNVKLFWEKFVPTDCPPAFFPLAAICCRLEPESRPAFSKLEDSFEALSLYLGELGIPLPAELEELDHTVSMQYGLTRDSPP
Chain of UniProt Q15418 (whole entry, looked up): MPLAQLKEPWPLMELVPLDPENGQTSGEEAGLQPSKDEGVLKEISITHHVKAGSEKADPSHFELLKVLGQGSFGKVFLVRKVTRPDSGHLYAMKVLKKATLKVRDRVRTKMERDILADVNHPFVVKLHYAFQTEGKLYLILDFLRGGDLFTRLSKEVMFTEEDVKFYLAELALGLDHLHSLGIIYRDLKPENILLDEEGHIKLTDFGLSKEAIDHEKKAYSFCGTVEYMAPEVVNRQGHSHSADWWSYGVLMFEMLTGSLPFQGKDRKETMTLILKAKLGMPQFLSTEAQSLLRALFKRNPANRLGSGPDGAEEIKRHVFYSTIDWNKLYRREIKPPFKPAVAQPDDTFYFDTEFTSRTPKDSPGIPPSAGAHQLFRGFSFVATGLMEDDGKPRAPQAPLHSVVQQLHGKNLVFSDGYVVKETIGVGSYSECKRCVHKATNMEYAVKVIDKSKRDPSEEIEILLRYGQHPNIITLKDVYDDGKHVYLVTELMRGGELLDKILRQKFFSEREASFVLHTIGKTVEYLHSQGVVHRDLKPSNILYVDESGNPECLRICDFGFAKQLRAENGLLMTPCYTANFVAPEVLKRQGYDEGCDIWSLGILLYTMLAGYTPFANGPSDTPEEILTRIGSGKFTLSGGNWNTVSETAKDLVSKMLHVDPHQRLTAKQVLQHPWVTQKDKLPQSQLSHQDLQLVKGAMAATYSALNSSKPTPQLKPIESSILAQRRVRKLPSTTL
Chain of UniProt Q6DT37 (whole entry, looked up): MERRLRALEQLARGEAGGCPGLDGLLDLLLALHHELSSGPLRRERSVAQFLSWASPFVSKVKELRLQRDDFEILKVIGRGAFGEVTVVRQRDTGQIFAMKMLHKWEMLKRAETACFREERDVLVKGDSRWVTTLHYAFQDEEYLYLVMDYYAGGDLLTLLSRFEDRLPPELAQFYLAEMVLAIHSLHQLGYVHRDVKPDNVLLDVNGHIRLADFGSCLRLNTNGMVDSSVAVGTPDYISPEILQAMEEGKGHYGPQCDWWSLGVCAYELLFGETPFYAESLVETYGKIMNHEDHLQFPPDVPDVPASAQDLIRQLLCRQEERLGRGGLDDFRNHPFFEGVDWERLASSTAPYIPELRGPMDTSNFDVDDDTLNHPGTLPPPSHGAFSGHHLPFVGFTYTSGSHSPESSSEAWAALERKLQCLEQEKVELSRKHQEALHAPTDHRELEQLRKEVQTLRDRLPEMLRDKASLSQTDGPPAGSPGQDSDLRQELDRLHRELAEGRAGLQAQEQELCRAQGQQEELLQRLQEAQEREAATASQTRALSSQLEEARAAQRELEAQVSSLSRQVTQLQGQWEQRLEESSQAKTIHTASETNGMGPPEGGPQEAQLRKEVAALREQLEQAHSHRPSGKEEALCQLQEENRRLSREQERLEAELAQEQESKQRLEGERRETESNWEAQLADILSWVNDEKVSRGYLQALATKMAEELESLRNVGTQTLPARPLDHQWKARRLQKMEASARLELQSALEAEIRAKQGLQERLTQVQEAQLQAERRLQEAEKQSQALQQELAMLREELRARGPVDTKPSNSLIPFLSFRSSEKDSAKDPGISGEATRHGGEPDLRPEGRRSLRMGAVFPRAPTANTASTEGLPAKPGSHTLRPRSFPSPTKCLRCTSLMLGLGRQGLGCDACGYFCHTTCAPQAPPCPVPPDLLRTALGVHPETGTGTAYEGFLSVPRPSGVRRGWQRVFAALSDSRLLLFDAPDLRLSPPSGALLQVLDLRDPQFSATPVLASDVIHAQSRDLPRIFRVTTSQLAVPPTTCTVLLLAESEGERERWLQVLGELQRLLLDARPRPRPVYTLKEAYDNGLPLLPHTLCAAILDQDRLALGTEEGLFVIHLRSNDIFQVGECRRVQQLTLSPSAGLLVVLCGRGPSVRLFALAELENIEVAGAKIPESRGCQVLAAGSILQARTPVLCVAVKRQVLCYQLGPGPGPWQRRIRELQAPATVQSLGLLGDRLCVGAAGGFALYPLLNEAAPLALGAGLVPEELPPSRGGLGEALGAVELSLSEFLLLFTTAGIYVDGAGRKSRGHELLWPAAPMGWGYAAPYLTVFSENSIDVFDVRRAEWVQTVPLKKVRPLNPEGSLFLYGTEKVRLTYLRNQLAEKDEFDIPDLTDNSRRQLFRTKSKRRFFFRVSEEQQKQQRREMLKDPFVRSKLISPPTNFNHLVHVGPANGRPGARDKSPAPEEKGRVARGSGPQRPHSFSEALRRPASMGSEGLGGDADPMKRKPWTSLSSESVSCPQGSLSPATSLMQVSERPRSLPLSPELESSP
Chain of UniProt P21709 (whole entry, looked up): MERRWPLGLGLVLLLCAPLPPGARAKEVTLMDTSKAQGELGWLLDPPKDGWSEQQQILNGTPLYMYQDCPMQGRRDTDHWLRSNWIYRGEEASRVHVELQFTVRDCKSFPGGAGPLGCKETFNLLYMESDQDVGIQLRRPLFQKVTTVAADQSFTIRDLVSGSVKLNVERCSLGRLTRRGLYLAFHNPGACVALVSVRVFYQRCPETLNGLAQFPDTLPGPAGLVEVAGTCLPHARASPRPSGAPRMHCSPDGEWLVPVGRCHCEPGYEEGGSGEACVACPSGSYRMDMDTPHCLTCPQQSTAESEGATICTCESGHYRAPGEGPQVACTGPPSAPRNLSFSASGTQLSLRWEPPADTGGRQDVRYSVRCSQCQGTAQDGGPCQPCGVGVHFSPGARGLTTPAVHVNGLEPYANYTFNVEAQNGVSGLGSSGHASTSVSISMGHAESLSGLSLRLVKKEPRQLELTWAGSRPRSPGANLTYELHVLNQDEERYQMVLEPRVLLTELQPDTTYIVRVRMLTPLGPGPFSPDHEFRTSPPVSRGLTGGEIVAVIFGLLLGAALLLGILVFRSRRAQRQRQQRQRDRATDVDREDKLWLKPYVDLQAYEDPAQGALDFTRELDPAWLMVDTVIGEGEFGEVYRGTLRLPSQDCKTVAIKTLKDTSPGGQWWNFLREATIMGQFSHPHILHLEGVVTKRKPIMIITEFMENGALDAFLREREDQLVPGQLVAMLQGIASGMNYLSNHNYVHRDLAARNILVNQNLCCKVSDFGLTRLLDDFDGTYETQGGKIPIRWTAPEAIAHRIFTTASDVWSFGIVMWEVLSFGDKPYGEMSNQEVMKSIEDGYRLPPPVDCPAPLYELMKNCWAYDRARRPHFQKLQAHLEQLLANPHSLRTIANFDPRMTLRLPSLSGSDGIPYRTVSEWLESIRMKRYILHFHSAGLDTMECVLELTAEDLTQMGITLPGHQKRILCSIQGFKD
Chain of UniProt Q8IU85 (whole entry, looked up): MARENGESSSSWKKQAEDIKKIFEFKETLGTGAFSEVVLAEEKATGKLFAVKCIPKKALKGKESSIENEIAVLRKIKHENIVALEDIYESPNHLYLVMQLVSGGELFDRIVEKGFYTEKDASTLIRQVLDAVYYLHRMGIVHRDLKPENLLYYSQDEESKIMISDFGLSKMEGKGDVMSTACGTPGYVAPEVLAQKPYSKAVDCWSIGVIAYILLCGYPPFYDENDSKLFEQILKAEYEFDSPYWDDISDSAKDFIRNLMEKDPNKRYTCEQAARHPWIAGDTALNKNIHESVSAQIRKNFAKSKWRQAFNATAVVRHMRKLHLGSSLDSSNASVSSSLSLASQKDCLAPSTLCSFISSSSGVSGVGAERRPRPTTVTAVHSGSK
Chain of UniProt Q15835 (whole entry, looked up): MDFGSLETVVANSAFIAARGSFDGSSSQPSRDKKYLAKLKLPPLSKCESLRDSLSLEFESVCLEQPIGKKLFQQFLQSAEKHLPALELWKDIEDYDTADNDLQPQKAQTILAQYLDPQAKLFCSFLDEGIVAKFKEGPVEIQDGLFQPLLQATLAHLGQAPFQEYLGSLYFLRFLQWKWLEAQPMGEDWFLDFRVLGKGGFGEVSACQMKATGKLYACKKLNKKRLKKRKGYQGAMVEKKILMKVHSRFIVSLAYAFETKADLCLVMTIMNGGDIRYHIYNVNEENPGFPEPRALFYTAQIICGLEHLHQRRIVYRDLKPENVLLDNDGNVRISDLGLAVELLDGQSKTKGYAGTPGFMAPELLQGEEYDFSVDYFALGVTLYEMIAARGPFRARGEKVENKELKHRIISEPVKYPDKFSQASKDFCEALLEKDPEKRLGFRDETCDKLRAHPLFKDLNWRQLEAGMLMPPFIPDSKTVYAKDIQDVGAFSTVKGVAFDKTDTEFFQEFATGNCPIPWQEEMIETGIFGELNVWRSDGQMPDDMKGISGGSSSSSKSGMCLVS

Series 1 — target: panel of 300 human kinases; concentration: 0.5 µM; reading: higher = more selective; quantity: Gini score
COc1ccc(OC)c2c(=S)c3ccccc3[nH]c12: 0.61
N#CCCc1ccc2c(c1)-c1[nH]c3ccc([N+](=O)[O-])cc3c1CC(=O)N2: 0.61
COc1cc2ncnc(Nc3ccc(Oc4ccccc4)cc3)c2cc1OC: 0.78
COc1ccc(CNC(=O)Nc2ncc([N+](=O)[O-])s2)cc1: 0.7
NC(=O)c1cccc(-c2cc(Nc3ccc(OC(F)(F)F)cc3)ncn2)c1: 0.64
COc1cc2c(N3CCN(C(=O)Nc4ccc(OC(C)C)cc4)CC3)ncnc2cc1OCCCN1CCCCC1: 0.78
Cn1c2ccccc2c2c3c(c4c5ccccc5n(CCC#N)c4c21)CNC3=O: 0.49
N#C/C(=C(/N)SC1C=CC=CC1)c1cccc(C(O)c2ccncc2)c1 (centres unmarked): 0.74
O=C1c2ccccc2-c2nc3nnnn3nc21: 0.54
CCN(CC)CCCCN1c2ccccc2Oc2ccc(Cl)cc21: 0.77

Series 2 — concentration: 1 µM; quantity: remaining binding
SMILES: CCCOc1ccc([C@H]2[C@H](C(=O)O)[C@@H](c3ccc4c(c3)OCO4)CN2CC(=O)Nc2c(CC)cccc2CC)cc1
Ephrin type-A receptor 1 (EPHA1, Homo sapiens, UniProt P21709); cell-free assay, competition with immobilised ligand: 86%
Cyclin-dependent kinase 4, with cyclin D3 (CDK4, Homo sapiens, UniProt P11802); cell-free assay, competition with immobilised ligand: 89%
Calcium/calmodulin-dependent protein kinase type 1D (CAMK1D, Homo sapiens, UniProt Q8IU85); cell-free assay, competition with immobilised ligand: 75%
Rhodopsin kinase GRK1 (GRK1, Homo sapiens, UniProt Q15835); cell-free assay, competition with immobilised ligand: 68%
Ribosomal protein S6 kinase alpha-2, C-terminal kinase domain (RPS6KA2, Homo sapiens, UniProt Q15349); cell-free assay, competition with immobilised ligand: 82%
Wee1-like protein kinase (WEE1, Homo sapiens, UniProt P30291); cell-free assay, competition with immobilised ligand: 93%
Activin receptor type-1-like (ACVRL1, Homo sapiens, UniProt P37023); binding, competition with immobilised ligand: 99%
Serine/threonine-protein kinase MRCK gamma (CDC42BPG, Homo sapiens, UniProt Q6DT37); competition binding: 79%
LIM domain kinase 2 (LIMK2, Homo sapiens, UniProt P53671); cell-free assay, competition with immobilised ligand: 100%
Ribosomal protein S6 kinase alpha-1, N-terminal kinase domain (RPS6KA1, Homo sapiens, UniProt Q15418); cell-free assay, competition with immobilised ligand: 87%

Series 3 — organism: Sarcocystis neurona; observed: parasite growth; concentration: 10 µM; time: 96 h; relative to: untreated; quantity: log2 fold change
CN(C)[C@@H]1C(O)=C(C(N)=O)C(=O)[C@@]2(O)C(O)=C3C(=O)c4c(O)ccc(Cl)c4[C@@H](O)[C@H]3C[C@@H]12: -0.28
Nc1nc(N)c2nc(-c3ccccc3)c(N)nc2n1: 0.73
O=C(O[C@H]1[C@H](Oc2ccccc2COC(=O)C2(O)C=CCCC2=O)O[C@H](CO)[C@@H](O)[C@@H]1O)c1ccccc1 (some centres unmarked): 0.34
O=C1CC[C@@H](C(=O)N2CSC[C@H]2C(=O)O)N1: 0.26
CCOC(=O)[C@H](CCc1ccccc1)N[C@@H](C)C(=O)N1Cc2ccccc2C[C@H]1C(=O)O: 0.37
CCN(CC)CC#CCOC(=O)C(O)(c1ccccc1)C1CCCCC1 (centres unmarked): 0.28
OCCN(CCO)c1nc(N2CCCCC2)c2nc(N(CCO)CCO)nc(N3CCCCC3)c2n1: 0.33

Other studies, line by line
CC(C)n1cnc(-c2ccc(F)cc2)c1-c1ncc(C(=O)Nc2ccc(N3CCN(C)CC3)cc2)[nH]1  patients with electrocardiogram QT prolonged (human, idiopathic pulmonary fibrosis; 30 mg once daily, trial, treatment-emergent): 0%
CCC[C@H]1NC(=O)CSC[C@@H](C(=O)OCC)N(C)C(=O)[C@H](CC(C)C)NC(=O)[C@@H](C)N(C)C(=O)[C@@H](CC(C)C)NC(=O)[C@H](C)N(C)C(=O)[C@H]2CCCN2C(=O)[C@@H](CC(C)C)NC(=O)CN(CCC)C1=O  logD (hydrocarbon/water): 0.957

For quick reference, copied from above (series 2):
LIM domain kinase 2 (LIMK2, Homo sapiens, UniProt P53671); cell-free assay, competition with immobilised ligand: 100%
Activin receptor type-1-like (ACVRL1, Homo sapiens, UniProt P37023); binding, competition with immobilised ligand: 99%
Ribosomal protein S6 kinase alpha-2, C-terminal kinase domain (RPS6KA2, Homo sapiens, UniProt Q15349); cell-free assay, competition with immobilised ligand: 82%
